Published values pooled from the literature.
± gives the spread as reported.

CCOP(=S)(OCC)Oc1nc(Cl)c(Cl)cc1Cl  body temperature (male ES1+/+ mice; transdermal, 100 mg/kg, 24 h): 32 °C
C[C@@H]1NC(=O)[C@@H]2CCCN2C(=O)[C@H](CC(N)=O)NC(=O)[C@H](Cc2c[nH]c3ccccc23)NC(=O)[C@@H]2CSSC[C@H](NC1=O)C(=O)NCC(=O)N[C@@H](CCCCN)C(=O)N[C@@H](Cc1c[nH]cn1)C(=O)N[C@@H](Cc1ccc(O)cc1)C(=O)N[C@H](C(N)=O)CSSC[C@H](NC(=O)CN)C(=O)N2  remaining peptide (RP-HPLC; mouse serum 25% in water; 50 µM, 24 h, 37 °C): 17.28 ± 0.14%
NC12CC3CC(CC(C3)C1)C2  EC50 (Influenza A virus; viral replication, plaque size reduction; MDCK, A/Swine/Iowa/9-0805/2009 (H1N1)): 36.6 ± 6.7 µM
CC(C)C[C@H](NC(=O)[C@@H]1C[C@@H](O)CN1C(=O)[C@H](Cc1ccccc1)NC(=O)[C@H](CO)NC(=O)[C@H](C)NC(=O)[C@H](Cc1ccccc1)NC(=O)[C@@H](NC(=O)[C@H](CCC(=O)O)NC(=O)[C@H](Cc1c[nH]cn1)NC(=O)[C@@H](NC(=O)[C@@H](NC(=O)[C@H](CCC(N)=O)NC(=O)[C@H](C)NC(=O)[C@@H](N)CC(=O)O)[C@@H](C)O)C(C)C)C(C)C)C(=O)N[C@@H](CC(=O)O)C(=O)N[C@@H](CO)C(=O)N[C@@H](CC(=O)O)C(=O)NCC(=O)N[C@H]1CSSC[C@@H](C(N)=O)NC(=O)[C@H](Cc2ccc(O)cc2)NC(=O)[C@H](Cc2c[nH]cn2)NC(=O)[C@H](CCCCN)NC(=O)CNC(=O)[C@@H]2CSSC[C@H](NC1=O)C(=O)N[C@@H](Cc1c[nH]c3ccccc13)C(=O)N[C@@H](CC(N)=O)C(=O)N1CCC[C@H]1C(=O)N[C@@H](C)C(=O)N2  remaining peptide (RP-HPLC; mouse serum 25%; 50 µM, 6 h, 37 °C): 86.2 ± 1.18%
Pillar[6]MaxQ  time to return to baseline behaviour (Swiss Webster mice, female; 136 mg/kg): 2 to 3 h
CNC(=O)Oc1cccc2c1OC(C)(C)C2  duration of hypothermia (male ES1−/− mice; subcutaneous, 1 mg/kg): 1 h
CC(C)C[C@@H]1NC(=O)[C@H](CC(N)=O)NC(=O)[C@H](CCCCN)NC(=O)[C@@H]2CSSC[C@H](NC(=O)[C@@H](N)CCCNC(=N)N)C(=O)N[C@H]3CSSC[C@H](NC(=O)[C@H](CCCCN)NC1=O)C(=O)N[C@H](C(=O)N[C@@H](C)C(N)=O)CSSC[C@H](NC(=O)[C@H](CO)NC(=O)CNC(=O)[C@H](CCCCN)NC(=O)[C@H](CCCCN)NC(=O)CNC(=O)[C@H]([C@@H](C)O)NC3=O)C(=O)N[C@@H](CO)C(=O)NCC(=O)N[C@@H](CCCNC(=N)N)C(=O)N[C@@H](C)C(=O)N2  lethal dose (Swiss Webster mice; ip or sc, 25 to 30 g body weight): 0.6 nmol/mouse
Cl.O=C1NCN(c2ccccc2)C12CCN([C@H]1CC[C@@H]3CCCc4cccc1c43)CC2  minimal effective dose (motor coordination impairment, accelerating rotarod; mouse male; intraperitoneal, 30 min): 1 mg/kg
CCOP(=S)(OCC)Oc1ccc([N+](=O)[O-])cc1  surface body temperature (male ES1−/− mice; subcutaneous, 12.5 mg/kg, 3 h): 33 °C
CCCSc1nc(N[C@@H]2C[C@H]2c2ccc(F)c(F)c2)c2nnn([C@@H]3C[C@H](OCCO)[C@@H](O)[C@H]3O)c2n1  plasma concentration (STEMI patients, plasma; 180 mg loading dose, 4 h, added: fentanyl): 425 ± 450 ng/mL
CSCC[C@@H]1NC(=O)[C@H](CC(C)C)NC(=O)[C@H](CCCNC(=N)N)NC(=O)[C@H](CO)NC(=O)[C@@H]2CSSC[C@@H]3NC(=O)[C@H](CO)NC(=O)CNC(=O)[C@H]([C@@H](C)O)NC(=O)[C@H](CSSC[C@H](N)C(=O)N[C@@H](CCCCN)C(=O)NCC(=O)N[C@@H](CCCCN)C(=O)NCC(=O)N[C@@H](C)C(=O)N[C@@H](CCCCN)C(=O)N2)NC(=O)[C@H](CSSC[C@@H](C(N)=O)NC(=O)[C@H](CCCCN)NC(=O)CNC(=O)[C@H](CO)NC(=O)[C@H](CCCNC(=N)N)NC3=O)NC(=O)[C@H](CC(=O)O)NC(=O)[C@H](Cc2ccc(O)cc2)NC1=O  peptide remaining intact (RP-HPLC; water; 3 h, 100 °C, heat stability): ~50%

Repeated from above:
CC(C)C[C@@H]1NC(=O)[C@H](CC(N)=O)NC(=O)[C@H](CCCCN)NC(=O)[C@@H]2CSSC[C@H](NC(=O)[C@@H](N)CCCNC(=N)N)C(=O)N[C@H]3CSSC[C@H](NC(=O)[C@H](CCCCN)NC1=O)C(=O)N[C@H](C(=O)N[C@@H](C)C(N)=O)CSSC[C@H](NC(=O)[C@H](CO)NC(=O)CNC(=O)[C@H](CCCCN)NC(=O)[C@H](CCCCN)NC(=O)CNC(=O)[C@H]([C@@H](C)O)NC3=O)C(=O)N[C@@H](CO)C(=O)NCC(=O)N[C@@H](CCCNC(=N)N)C(=O)N[C@@H](C)C(=O)N2  lethal dose (Swiss Webster mice; ip or sc, 25 to 30 g body weight): 0.6 nmol/mouse
